{"data": "Published values from different studies", "rep main protease": "Replicase polyprotein 1ab, main protease (rep, Severe acute respiratory syndrome coronavirus 2, UniProt P0DTD1)", "rep papain-like protease": "Replicase polyprotein 1ab, papain-like protease (rep, Severe acute respiratory syndrome coronavirus 2, UniProt P0DTD1)", "note": "Compare with care: the assays were run in different laboratories. Values joined by “and” are separate records of one study, mostly repeats; a detail may differ. Numbers after ± are the reported error."}
{"SMILES": "COC(=O)c1cc2c(=O)n3ccccc3nc2n1Cc1ccccc1", "target": "rep main protease", "test": "enzyme activity, inhibitor", "setting": "1 mM", "inhibition": "62%"}
{"SMILES": "C[C@](C(=O)NC1CCOCC1)(c1cncnc1)N(C(=O)[C@H](F)Cl)c1ccc(OC(F)(F)Cl)cc1", "target": "rep main protease", "test": "enzyme activity", "setting": "0.00051 µM", "inhibition": "-4.71% and 3.22% and 2.76%"}
{"SMILES": "CC(=O)Oc1cccc2c1C(=O)C=CC2=O", "target": "rep main protease", "test": "enzyme activity, inhibitor", "setting": "10 µM", "inhibition": "101%"}
{"SMILES": "C[C@](C(=O)NC1CCC(F)(F)CC1)(c1cncnc1)N(C(=O)[C@H](F)Cl)c1ccc(OC(F)(F)F)cc1", "target": "rep main protease", "test": "enzyme activity, inhibitor", "setting": "0.926 µM", "inhibition": "98.1%"}
{"SMILES": "COc1cc(Oc2c(O)c(Cl)c(C)c(Cl)c2OC)c(C(=O)O)c(C)c1O", "target": "rep main protease", "test": "enzyme activity, inhibitor, FRET", "setting": "10 µM", "inhibition": "22.9%"}
{"SMILES": "NS(=O)(=O)c1ccc(CCNC(=O)OC(=O)c2ccccc2NC(=O)c2ccco2)cc1", "target": "rep main protease", "test": "enzyme activity, inhibitor", "setting": "100 µg/mL", "inhibition": "0%"}
{"SMILES": "COC(=O)[C@H](C)n1[se]c2ccccc2c1=O", "target": "rep main protease", "test": "enzyme activity, inhibitor", "setting": "40 µM, mean of repeats", "inhibition": "105%"}
{"SMILES": "COc1cc(-c2oc3cc(OC(C)=O)c(OC)c(OC(C)=O)c3c(=O)c2OC)ccc1OC(C)=O", "target": "rep main protease", "test": "enzyme activity, inhibitor, mass spectrometry", "setting": "concentration not given", "inhibition": "inhibited"}
{"SMILES": "CC[C@@H](C)[C@H](NC(=O)c1ccccc1[Se][Se]c1ccccc1C(=O)N[C@H](C(=O)O)[C@H](C)CC)C(=O)O", "target": "rep main protease", "test": "enzyme activity, inhibitor", "setting": "40 µM", "inhibition": "73.5% and 70.9%"}
{"SMILES": "O=C(NC1CCC(F)(F)CC1)C(c1cncnc1)N(C(=O)C(F)Cl)c1ccc(-c2cncs2)cc1 (centres unmarked)", "target": "rep main protease", "test": "enzyme activity, inhibitor", "setting": "0.309 µM", "inhibition": "94.9%"}
{"SMILES": "O=C(O)c1ccccc1[Se][Se]c1ccccc1C(=O)O", "target": "rep main protease", "test": "enzyme activity, inhibitor", "setting": "40 µM", "inhibition": "23.5%"}
{"SMILES": "O=C(NC1CCC(F)(F)CC1)C(c1cncnc1)N(C(=O)C(F)Cl)c1ccc(OC(F)(F)F)cc1 (centres unmarked)", "target": "rep main protease", "test": "enzyme activity", "setting": "0.926 µM", "inhibition": "100% and 90.3%"}
{"SMILES": "C=C1CC[C@@H]2[C@](C)(COC(C)=O)[C@H](OC(C)=O)CC[C@@]2(C)[C@@H]1C[C@H](SC(=S)N1CCN(C(c2ccccc2)c2ccc(Cl)cc2)CC1)C1=CCOC1=O (some centres unmarked)", "target": "rep main protease", "test": "enzyme activity, inhibitor, fluorescence", "setting": "10 µM", "inhibition": "> 50%"}
{"SMILES": "C=C1CCC2C(C)(CO)C(O)CCC2(C)C1CC(SC(=S)N1CCN(Cc2cc(F)c(F)cc2F)CC1)C1=CCOC1=O (centres unmarked)", "target": "rep main protease", "test": "enzyme activity, inhibitor, fluorescence", "setting": "100 µM", "inhibition": "~70%"}
{"SMILES": "COC(=O)C[C@@H](C(=O)OC)n1[se]c2ccccc2c1=O", "target": "rep main protease", "test": "enzyme activity, inhibitor", "setting": "40 µM, mean of repeats", "inhibition": "105%"}
{"SMILES": "COc1cc(OC)cc(C(=O)N(CCC(=O)N2CCNCC2)Cc2cccc(Cl)c2)c1", "target": "Replicase polyprotein 1ab, nsp3 macrodomain (rep, Severe acute respiratory syndrome coronavirus 2, UniProt P0DTD1)", "test": "ADP-ribosylhydrolase activity, inhibitor, gel-based de-MARylation", "setting": "25 µM, SARS-CoV-2 Mac1", "inhibition": "6%"}
{"SMILES": "O=S(=O)(/N=c1/ssc(-c2ccccc2)c1Cl)c1ccccc1", "target": "rep main protease", "test": "enzyme activity, inhibitor", "setting": "100 µM", "inhibition": "94.7%"}
{"SMILES": "O=C(CCN(Cc1ccco1)C(=O)c1csc(Nc2ccccc2)n1)NCc1cccc(C(F)(F)F)c1", "target": "rep main protease", "test": "nsp5 protease activity, luciferase", "system": "HEK293T", "setting": "10 µM", "inhibition": "49.9 ± 0.2%"}
{"SMILES": "O=c1c2ccccc2[se]n1-c1ccc(F)cc1", "target": "rep main protease", "test": "enzyme activity, inhibitor", "setting": "0.3 µM", "inhibition": "67%"}
{"SMILES": "C[C@@H](Cc1ccc(O)c(O)c1)[C@@H](C)Cc1ccc(O)c(O)c1", "target": "rep papain-like protease", "test": "enzyme activity, inhibitor, FRET", "setting": "8 µM", "inhibition": "30.7%"}
{"SMILES": "CC1(C)C2CCC1(C)C(n1[se]c3ccccc3c1=O)C2 (centres unmarked)", "target": "rep main protease", "test": "enzyme activity, inhibitor", "setting": "40 µM, mean of repeats", "inhibition": "99.2%"}
{"SMILES": "Cn1c(=O)c2c(nc3n(CC#Cc4ccc(Cl)c(Cl)c4)ccn23)n(C)c1=O", "target": "rep main protease", "test": "enzyme activity, inhibitor, fluorescence", "setting": "10 µM, pH 7.2", "inhibition": "100%"}
{"SMILES": "CC1C(n2[se]c3ccccc3c2=O)CC2CC1C2(C)C (centres unmarked)", "target": "rep main protease", "test": "enzyme activity, inhibitor", "setting": "40 µM, mean of repeats", "inhibition": "102%"}
{"SMILES": "Cc1cnccc1-n1[se]c2ccccc2c1=O", "target": "rep main protease", "test": "enzyme activity, inhibitor", "setting": "0.3 µM", "inhibition": "75.1%"}
{"SMILES": "O=C(Oc1ccc(OC(=O)c2ccc(C(=O)Nc3ccccc3C(=O)O)c(C(=O)O)c2)cc1)c1ccc(C(=O)Nc2ccccc2C(=O)O)c(C(=O)O)c1", "target": "rep papain-like protease", "test": "enzyme activity, inhibitor", "setting": "100 µg/mL", "inhibition": "0%"}
{"SMILES": "COc1ccc(-c2cc(=O)c3c(O)c(Oc4ccc(-c5cc(=O)c6c(O)cc(O)cc6o5)cc4)c(OC)cc3o2)cc1", "target": "rep papain-like protease", "test": "enzyme activity, inhibitor", "setting": "20 µM", "inhibition": "64.9 to 74.8%"}
{"SMILES": "O=C(NC1CCN(c2ncnc3[nH]cnc23)CC1)c1cccc(NS(=O)(=O)c2ccc(C(F)(F)F)cc2)c1", "target": "Replicase polyprotein 1ab, nsp14 with nsp10 (rep, Severe acute respiratory syndrome coronavirus 2, UniProt P0DTD1)", "test": "exonuclease activity", "system": "SARS-CoV-2", "setting": "0.04883 µM", "inhibition": "2.3%"}
{"SMILES": "c1ccc([Se][Se]c2ccccc2)cc1", "target": "rep main protease", "test": "enzyme activity, inhibitor", "setting": "40 µM", "inhibition": "104%"}
{"SMILES": "O=c1cc(-c2ccc(O)cc2)oc2c([C@@H]3OC[C@H](O)[C@H](O)[C@H]3O)c(O)c([C@@H]3O[C@H](CO)[C@@H](O)[C@H](O)[C@H]3O)c(O)c12", "target": "rep papain-like protease", "test": "enzyme activity, inhibitor", "setting": "8 µM", "inhibition": "60%"}
{"note": "Excerpt of the above:"}
{"SMILES": "CC1C(n2[se]c3ccccc3c2=O)CC2CC1C2(C)C (centres unmarked)", "target": "rep main protease", "test": "enzyme activity, inhibitor", "setting": "40 µM, mean of repeats", "inhibition": "102%"}
{"SMILES": "C[C@](C(=O)NC1CCC(F)(F)CC1)(c1cncnc1)N(C(=O)[C@H](F)Cl)c1ccc(OC(F)(F)F)cc1", "target": "rep main protease", "test": "enzyme activity, inhibitor", "setting": "0.926 µM", "inhibition": "98.1%"}
{"SMILES": "C=C1CCC2C(C)(CO)C(O)CCC2(C)C1CC(SC(=S)N1CCN(Cc2cc(F)c(F)cc2F)CC1)C1=CCOC1=O (centres unmarked)", "target": "rep main protease", "test": "enzyme activity, inhibitor, fluorescence", "setting": "100 µM", "inhibition": "~70%"}
